Assay results pooled from the literature.
Each numbered part is a random draw from the data of one study; scales do not carry over between parts. Several values in a cell are separate wells, animals, samples, runs or records.
Sequence of UniProt P9WI81 (whole entry, looked up): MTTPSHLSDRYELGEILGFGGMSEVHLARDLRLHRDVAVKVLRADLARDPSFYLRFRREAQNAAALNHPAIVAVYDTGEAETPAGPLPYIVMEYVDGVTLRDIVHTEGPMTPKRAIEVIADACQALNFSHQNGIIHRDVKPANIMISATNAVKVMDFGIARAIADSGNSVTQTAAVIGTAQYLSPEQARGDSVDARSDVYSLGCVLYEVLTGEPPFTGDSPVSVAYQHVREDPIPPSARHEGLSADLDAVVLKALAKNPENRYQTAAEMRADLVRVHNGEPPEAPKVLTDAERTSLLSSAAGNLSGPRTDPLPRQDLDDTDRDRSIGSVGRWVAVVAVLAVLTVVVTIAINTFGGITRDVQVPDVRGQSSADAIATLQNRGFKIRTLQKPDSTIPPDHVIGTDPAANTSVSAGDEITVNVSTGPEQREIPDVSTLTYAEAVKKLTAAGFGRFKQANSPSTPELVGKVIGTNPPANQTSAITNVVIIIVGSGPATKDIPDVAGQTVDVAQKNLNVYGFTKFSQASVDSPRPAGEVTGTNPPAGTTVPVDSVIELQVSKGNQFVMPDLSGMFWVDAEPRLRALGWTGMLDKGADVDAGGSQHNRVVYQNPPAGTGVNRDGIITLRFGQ
Sequence of UniProt P61075 (whole entry, looked up): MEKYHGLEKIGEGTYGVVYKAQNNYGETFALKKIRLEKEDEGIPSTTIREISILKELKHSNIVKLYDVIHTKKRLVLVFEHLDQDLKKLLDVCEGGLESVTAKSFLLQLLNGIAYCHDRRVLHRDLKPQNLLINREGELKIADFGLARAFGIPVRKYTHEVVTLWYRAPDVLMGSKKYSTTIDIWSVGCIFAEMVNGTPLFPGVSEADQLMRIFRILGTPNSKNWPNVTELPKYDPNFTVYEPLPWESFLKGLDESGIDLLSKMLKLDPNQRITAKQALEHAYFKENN

Study 1
Organism: Sarcocystis neurona
Read-out: parasite activity
Concentration: 10 µM
Time: 96 h
Endpoint: activity class
CN1CCN(C(=O)O[C@H]2c3nccnc3C(=O)N2c2ccc(Cl)cn2)CC1: inactive
C[N+]1(CCC(C(N)=O)(c2ccccc2)c2ccccc2)CCCCC1: inactive
CN1C(=O)COc2c(C(=O)NC3CN4CCC3CC4)cc(Cl)cc21 (centres unmarked): inactive
C[C@]12CC[C@H](O)CC1=CC[C@@H]1[C@@H]2CC[C@@]2(C)[C@H]1CC[C@]2(C)O: inactive
c1ccc2c(c1)Nc1ccccc1S2: inactive
FC(F)(F)c1cccc(N2CCNCC2)c1: inactive

Study 2
Target: Beta-1 adrenergic receptor (ADRB1, Homo sapiens, UniProt P08588)
Sequence of UniProt P08588 (whole entry, looked up): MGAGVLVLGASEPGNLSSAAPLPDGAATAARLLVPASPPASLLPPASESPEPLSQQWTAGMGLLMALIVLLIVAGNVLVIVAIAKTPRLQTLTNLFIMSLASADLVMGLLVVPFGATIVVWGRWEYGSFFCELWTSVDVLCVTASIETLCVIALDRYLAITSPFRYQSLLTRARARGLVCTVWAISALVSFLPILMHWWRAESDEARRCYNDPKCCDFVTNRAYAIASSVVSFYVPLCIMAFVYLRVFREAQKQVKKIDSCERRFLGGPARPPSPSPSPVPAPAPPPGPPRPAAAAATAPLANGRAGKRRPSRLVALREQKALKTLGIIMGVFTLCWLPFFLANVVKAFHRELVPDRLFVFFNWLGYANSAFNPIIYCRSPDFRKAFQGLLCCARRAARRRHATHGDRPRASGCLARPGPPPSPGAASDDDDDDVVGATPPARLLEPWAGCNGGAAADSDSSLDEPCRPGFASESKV
Action: agonist
Endpoint: Emax
CC(C)NCC(O)c1cc(O)cc(O)c1 (centres unmarked): 66%
CNCCc1ccc(O)c(O)c1: 92.3%
COc1ccc(C[C@@H](C)NC[C@H](O)c2ccc(O)c3[nH]c(=O)ccc23)cc1: 70.1%
CC(Cc1ccccc1)NCCC(c1ccccc1)c1ccccc1 (centres unmarked): 70.2%
Cc1ccc(CNCCc2c[nH]c3ccccc23)cc1: 54.4%
C[C@H](NCCc1ccc(O)cc1)[C@H](O)c1ccc(O)cc1: 91.4%
CC(C)(C)NCC(O)c1ccc(O)c(O)c1 (centres unmarked): 61.7%
CNCC(O)c1ccc(O)c(OC)c1 (centres unmarked): 67%

Study 3
Compound: CC(C)(C)c1cnc(CSc2cnc(NC(=O)C3CCN(CCCCCSc4cccc5c4CN(C4CCC(=O)NC4=O)C5=O)CC3)s2)o1 (centres unmarked)
Host: Sprague-Dawley rat, male
Dose: dose not given
Endpoint: body weight
intraperitoneal, day 4: 215 g and 240 g and 213 g
subcutaneous, day 14: 251 g and 306 g
intraperitoneal, day -1: 201 g and 221 g and 199 g
subcutaneous, day 2: 200 g and 225 g and 224 g
intraperitoneal, day 5: 241 g and 213 g and 206 g
subcutaneous, day 3: 226 g and 205 g and 229 g
subcutaneous, day 4: 220 g and 198 g and 214 g
intraperitoneal, day 2: 227 g and 206 g and 204 g

Single results of other studies
Cc1noc([C@H]2C[C@@H](c3ccc(C(F)(F)F)cc3)CN(C(=O)N3CCS(=O)(=O)C3)C2)n1  remaining binding (pknB (Mycobacterium tuberculosis, UniProt P9WI81); cell-free assay, competition with immobilised ligand; 1 µM): 82%
CNC(=O)c1cc(C(=O)NC2CC2)cn(Cc2ccccc2)c1=O  viability (normal-adjacent epithelium patient-derived organoids sample G; CellTiter-Glo; 1 µM; baseline: DMSO): 83%
CN[C@@H]1C[C@H]2O[C@@](C)([C@@H]1OC)n1c3ccccc3c3c4c(c5c6ccccc6n2c5c31)C(=O)NC4  viability (normal-adjacent epithelium patient-derived organoids sample G; CellTiter-Glo; 1 µM; baseline: DMSO): 1%
CNC(=O)c1ccc(Nc2ncc(C(F)(F)F)c(NCc3nccnc3N(C)S(C)(=O)=O)n2)cc1  remaining binding (CRK2 (Plasmodium falciparum, UniProt P61075); cell-free assay, competition with immobilised ligand; 0.1 µM): 89%

Excerpt of the above (study 3):
intraperitoneal, day -1: 201 g and 221 g and 199 g
subcutaneous, day 2: 200 g and 225 g and 224 g
intraperitoneal, day 5: 241 g and 213 g and 206 g
